Measured values from different studies.
Compare with care: the assays were run in different laboratories.
Target: Inhibitor of nuclear factor kappa-B kinase subunit alpha (CHUK, Homo sapiens, UniProt O15111)
One construct used (O15111 1-745): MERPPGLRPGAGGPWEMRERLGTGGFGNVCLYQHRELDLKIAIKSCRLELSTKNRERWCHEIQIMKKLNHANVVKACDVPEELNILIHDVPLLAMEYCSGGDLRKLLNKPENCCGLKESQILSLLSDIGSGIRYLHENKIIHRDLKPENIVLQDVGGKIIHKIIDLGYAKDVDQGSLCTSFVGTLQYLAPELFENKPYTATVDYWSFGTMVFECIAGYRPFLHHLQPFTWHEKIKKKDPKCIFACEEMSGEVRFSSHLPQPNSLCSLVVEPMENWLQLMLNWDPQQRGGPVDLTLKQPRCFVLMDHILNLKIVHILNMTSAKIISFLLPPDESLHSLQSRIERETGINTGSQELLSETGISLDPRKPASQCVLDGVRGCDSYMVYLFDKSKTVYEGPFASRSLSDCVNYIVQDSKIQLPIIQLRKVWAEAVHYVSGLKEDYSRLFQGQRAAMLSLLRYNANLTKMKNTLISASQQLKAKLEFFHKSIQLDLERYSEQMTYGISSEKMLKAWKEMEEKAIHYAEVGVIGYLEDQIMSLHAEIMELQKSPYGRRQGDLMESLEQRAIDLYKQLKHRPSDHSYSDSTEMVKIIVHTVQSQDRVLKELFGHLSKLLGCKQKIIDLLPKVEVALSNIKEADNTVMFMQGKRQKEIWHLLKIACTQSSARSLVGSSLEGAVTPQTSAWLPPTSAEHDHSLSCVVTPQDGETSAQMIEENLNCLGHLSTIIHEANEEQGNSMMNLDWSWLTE

SMILES | assay | system | setting | how to read | endpoint | result
C=CC(=O)Nc1cc(-c2nn(C3CCN(CCNC(=O)[C@H](C)CCC45CC6CC(CC(C6)C4)C5)CC3)c3ncnc(N)c23)ccc1Oc1ccccc1 | inhibitor, KiNativ profiling | biochemical | 2 µM | – | inhibition | 8.5%
C=CC(=O)Nc1cccc(-c2cnc3[nH]cc(C(=O)NC(C)(C)C)c3n2)c1 | enzyme activity, inhibitor | – | 0.1 µM | – | inhibition | 1%
O=C(Cc1ccc(OCc2ccccc2)cc1)NC1(C(=O)O)CCN(C(=O)c2ccc(-c3cccc(Cl)c3)cc2)CC1 | enzyme activity, inhibitor | – | 10 µM | – | activity vs control | 118%
CN1CCN(Cc2ccc(-c3ccc(CO[C@H]4CCC[C@@H]4NC(=O)c4cc(-c5cnn(C)c5)cnc4N)cc3)cc2)CC1 | enzyme activity, inhibitor | – | 0.1 µM | – | inhibition | 3%
COc1ccc(O)cc1-c1c[nH]c2ncc(-c3cncc(C(=O)N(C)C)c3)cc12 | binding, competition with immobilised ligand | – | 0.2 µM | – | inhibition | -9.02%
Cc1nc2c(F)cc(-c3nc(Nc4ccc(CNC(=O)CCCCCCC(=O)NO)cc4)ncc3F)cc2n1C(C)C | enzyme activity, inhibitor | – | 1 µM | – | inhibition | 80%
COc1cc(Nc2nccc(-c3cnn4nc(OC)ccc34)n2)cc(C(F)(F)F)c1 | binding, competition with immobilised ligand | – | 1 µM | – | remaining binding | 100%
C=CC(=O)N1CCc2ccc(-n3c(=O)ccc4cnc5ccc(-c6cnn(C)c6)cc5c43)cc21 | KINOMEscan | – | 1 µM | baseline: DMSO control | remaining binding | 100%
C=CC(=O)N1CCCC(n2c(=O)c3ncccc3n(Cc3ccc(Oc4ccccc4)cc3)c2=O)C1 (stereo not shown) | cell-free assay, competition with immobilised ligand | – | 1 µM | – | remaining binding | 78%
O=C=[N][Ru-4]123([n]4c5ccc(O)cc5c5c6c(c7cc(F)c[n+]1c7c54)C(=O)NC6=O)[S+]1CC[S+]2CC[S+]3CC1 (stereo not shown) | enzyme activity | – | 100 nM, human enzyme, with: 10 µM ATP | baseline: untreated | remaining activity | 119%
CNC(=O)C[C@H](Cc1ccc(C#N)cc1)NC(=O)c1cc(-c2ccc(CN[C@H](C)c3ccc(C)cc3)o2)ccc1Cl | enzyme activity, inhibitor | – | 1 µM | – | activity vs control | 96%
COc1ccc(C(=O)/C=C/c2ccccc2-c2c[nH]c3ccc(C#N)cc23)c(O)c1 | enzyme activity, inhibitor | – | 20 µM | – | inhibition | -4%
CNS(=O)(=O)Nc1nccc(Cc2c(C)c3ccc(Oc4ncccc4F)cc3oc2=O)c1F | cell-free assay, competition with immobilised ligand | – | 10 µM | – | remaining binding | 81%
Nc1ncc(-c2cc(-c3cnn(CC(F)(F)F)c3)ncc2F)nc1C(=O)NC1CNCC(F)C1 (stereo not shown) | enzyme activity | – | 1 µM | baseline: DMSO control | remaining activity | 111%
NC(=O)C[C@H]1CCc2sc3ncnc(O[C@H]4CC[C@H](N5CCOCC5)CC4)c3c21 | enzyme activity, inhibitor | – | 10 µM | – | inhibition | 3%
Nc1ncc2c(n1)-c1c([nH]c3ccc(C4=CCOCC4)cc13)CCC2 | binding, competition with immobilised ligand | – | 1 µM | – | remaining binding | 77%
CCN1CCN(Cc2ccc(C(=O)Nc3ccc(C)c(NCc4cnc5[nH]ccc5c4OC)c3)cc2C(F)(F)F)CC1 | binding, competition with immobilised ligand | – | 1 µM | – | remaining binding | 0.6%
CN1CCN(Cc2ccc(NC(=O)c3cccc(C#Cc4cnc(N)c5ncccc45)c3)cc2C(F)(F)F)CC1 | cell-free assay, competition with immobilised ligand | – | 0.5 µM | – | remaining binding | 0%
Cc1cccc(O[C@H]2CCC[C@@H](C(C)CNCc3ccncc3)C2)c1 (relative stereo) | enzyme activity, inhibitor | – | 10 µM | – | inhibition | 12%
C=C1CCCCCCCCCC(CO)C1=O (stereo not shown) | cell-free assay | – | 10 µM | – | remaining signal | 87%
CCn1cc(C(=O)O)c(=O)c2c(N)c(F)c(NC3CCCCC3)cc21 | kinase activity | – | 0.1 µM, with: ATP at Km | – | inhibition | -2.2%
COc1ccc(NC(=O)Nc2ccc3c(c2)C(=O)N(C(C)CO)CC(C)C(CN(C)Cc2ccc4c(c2)OCO4)O3)cc1 (stereo not shown) | binding, competition with immobilised ligand | – | 10 µM | – | remaining binding | 58%

Some of these lines once more:
SMILES | assay | system | setting | how to read | endpoint | result
Cc1cccc(O[C@H]2CCC[C@@H](C(C)CNCc3ccncc3)C2)c1 (relative stereo) | enzyme activity, inhibitor | – | 10 µM | – | inhibition | 12%
C=C1CCCCCCCCCC(CO)C1=O (stereo not shown) | cell-free assay | – | 10 µM | – | remaining signal | 87%
